Published values collected from several papers.
Lines come from different studies, so protocols differ. Several values in a cell are separate wells, animals, samples, runs or records. ± marks the error that the study gave.

Compound | tested on | test | test system | setting | scale | quantity | result
COC1OC(C)C(O)C(OC2OC(C)C(O)C(OS(=O)(=O)O)C2OS(=O)(=O)O)C1OS(=O)(=O)O (centres unmarked) | – | – | human plasma | 128 µg/mL | – | prothrombin time | 15.3 ± 0.7 s
CN1CCCNC(=O)c2cccc(c2)C(=O)NCCCN(C)CCCNc2cccc3c2C(=O)c2cccc(c2C3=O)NCCC1 | – | – | SAS xenograft, KSN/Slc nude mice | dose not given, day 0 | – | tumour volume | 64.1 mm3 and 74.1 mm3 and 92.3 mm3 and 65.7 mm3 and 37.7 mm3
CC(C)(C)NCC(SS(=O)(=O)O)c1ccccc1 (centres unmarked) | – | – | Schistosoma mansoni-infected mice | 600 mg/kg single, day 1, perfusion day 44 | – | liver weight | 2.44 g
COc1cc(O)ccc1CCC(c1ccc(O)cc1)c1cc2c(c(C)c1O)OC(c1ccc(O)cc1)CC2 (mixture of isomers) | – | refers to: LTB4 isomers | human whole blood | 3 µM, added: Escherichia coli | – | amount | 361 ± 89 pg/mL blood
COc1cnc2cccc(N3CCc4c(cc(Cn5ccnc5)cc4-c4cn(C)nc4C(F)(F)F)C3=O)c2c1 | – | – | BALB/c nude mice, MV4-11 xenograft | intraperitoneal, 100 mg/kg, day 17 | – | tumour volume | 87 mm3 and 153 mm3 and 186 mm3 and 176 mm3 and 166 mm3
CCCCCCCCCCCCCCCC(=O)OCC(CSC[C@H](N)C(=O)N[C@@H](CO)C(=O)N[C@@H](CCCCN)C(=O)N[C@@H](CCCCN)C(=O)N[C@@H](CCCCN)C(=O)N[C@@H](CCCCN)C(=O)NCCCCCC(=O)N[C@@H](CCCCN)C(=O)N[C@@H](CC(C)C)C(=O)N[C@H](C(=O)N[C@@H](Cc1ccccc1)C(=O)N[C@@H](Cc1ccccc1)C(=O)N[C@@H](Cc1ccc2ccccc2c1)C(=O)O)C(C)C)OC(=O)CCCCCCCCCCCCCCC (some centres unmarked) | – | thioflavin S staining | APP/PS1 transgenic mouse, hippocampus | intrahippocampal, unit not given | reference: injected over adjacent side | amyloid plaque load | 2.29e-05 and 0.000524 and 0.0105 and 7.49e-05 and 0.448
COC1OC(C)C(OS(=O)(=O)O)C(OC2OC(C)C(OS(=O)(=O)O)C(OC3OC(C)C(OS(=O)(=O)O)C(OC4OC(C)C(OS(=O)(=O)O)C(OS(=O)(=O)O)C4OS(=O)(=O)O)C3OS(=O)(=O)O)C2OS(=O)(=O)O)C1OS(=O)(=O)O (centres unmarked) | – | – | human plasma | 128 µg/mL | – | prothrombin time | 15 ± 0.4 s
Cc1cn(-c2cc(NC(=O)c3cc(C#Cc4cnc5c(Nc6cnn(C)c6)cccn45)c(C)cc3F)cc(C(C)(C)C#N)c2)cn1 | – | platelet aggregation | platelet-rich plasma | 0.1 µM, DMSO 130.6, added: collagen 2 mg/mL | – | lag time | 156 s
COC1CN([C@H]2CC[C@H]([C@@]3(C)Oc4c(Cl)cc(C(=O)NCc5c(SC)cc(C)[nH]c5=O)c(C)c4O3)CC2)C1 | – | RNA-seq, refers to: CLDN4 | human, whole blood | dose not given, 24 h | reference: pretreatment baseline | log2 fold change | 2.24
COC1OC(C)C(OC2OC(C)C(OS(=O)(=O)O)C(OC3OC(C)C(OC4OC(C)C(OS(=O)(=O)O)C(OC5OC(C)C(OC6OC(C)C(OS(=O)(=O)O)C(OC7OC(C)C(OC8OC(C)C(OS(=O)(=O)O)C(OC9OC(C)C(OC%10OC(C)C(OS(=O)(=O)O)C(OS(=O)(=O)O)C%10O)C(OS(=O)(=O)O)C9O)C8O)C(OS(=O)(=O)O)C7O)C6O)C(OS(=O)(=O)O)C5O)C4O)C(OS(=O)(=O)O)C3O)C2O)C(OS(=O)(=O)O)C1O (centres unmarked) | – | – | human plasma | 128 µg/mL | reference: control | prothrombin time prolongation | 0.97 fold
CC(C)C[C@H](NC(=O)CNC(=O)[C@H](CCC(N)=O)NC(=O)[C@H](CC(C)C)NC(=O)[C@H](CC(C)C)NC(=O)[C@H](CCCNC(=N)N)NC(=O)[C@H](CCC(N)=O)NC(=O)[C@H](CC(C)C)NC(=O)[C@H](CCCNC(=N)N)NC(=O)[C@H](C)NC(=O)CNC(=O)[C@H](CCC(=O)O)NC(=O)[C@H](CCCNC(=N)N)NC(=O)[C@H](CC(C)C)NC(=O)[C@H](CCCNC(=N)N)NC(=O)[C@H](CO)NC(=O)[C@H](CC(C)C)NC(=O)[C@H](CCC(=O)O)NC(=O)[C@H](CO)NC(=O)[C@@H](NC(=O)[C@H](Cc1ccccc1)NC(=O)[C@@H](NC(=O)CNC(=O)[C@H](CC(=O)O)NC(=O)C(C)(C)NC(=O)[C@@H](N)Cc1c[nH]cn1)[C@@H](C)O)[C@@H](C)O)C(=O)N[C@@H](CC(C)C)C(=O)N[C@@H](CCC(N)=O)C(=O)NCC(=O)N[C@@H](CC(C)C)C(=O)N[C@H](C(=O)NCC(=O)N[C@@H](CCCCNC(=O)COCCOCCNC(=O)COCCOCCNC(=O)CC[C@H](NC(=O)CCCCCCCCCCCCCCCCC(=O)O)C(=O)O)C(N)=O)C(C)C | – | – | DIO C57BL/6J mice | sc, 300 nmol/kg twice daily, end of 8 days, not significant | – | liver triglyceride reduction | 24%
COC1OC(C)C(OC2OC(C)C(O)C(OC3OC(C)C(OC4OC(C)C(O)C(OC5OC(C)C(OC6OC(C)C(O)C(OS(=O)(=O)O)C6OS(=O)(=O)O)C(OS(=O)(=O)O)C5OS(=O)(=O)O)C4OS(=O)(=O)O)C(OS(=O)(=O)O)C3OS(=O)(=O)O)C2OS(=O)(=O)O)C(OS(=O)(=O)O)C1OS(=O)(=O)O (centres unmarked) | – | – | human plasma | 128 µg/mL | reference: control | prothrombin time prolongation | 0.99 fold
CN1CCC[C@]1(C)/C=C/S(=O)(=O)NC(=O)Nc1c2c(cc3c1CCC3)CCC2 | – | – | human, whole blood ex vivo | 100 mg twice daily, day 14, 36 h, multiple ascending dose, added: LPS and ATP | – | IL-1β inhibition | 86.9%
C[n+]1cc(/C=N/NC(=O)c2ccc3ccc(C(=O)N/N=C/c4cc5ccccc5[n+](C)c4)nc3n2)cc2ccccc21 | MYC parallel G4 DNA | FRET melting | – | 1 µM, DNA 0.2 µM | – | ΔTm | 8.1 ± 0.3 °C
COC1OC(C)C(OC2OC(C)C(OS(=O)(=O)O)C(OC3OC(C)C(OC4OC(C)C(OS(=O)(=O)O)C(OC5OC(C)C(OS(=O)(=O)O)C(OS(=O)(=O)O)C5O)C4O)C(OS(=O)(=O)O)C3O)C2O)C(OS(=O)(=O)O)C1O (centres unmarked) | – | – | human plasma | 128 µg/mL | reference: control | prothrombin time prolongation | 1 fold
CCOC(=O)CCCCC1NCCc2cc(O)c(O)cc21 (centres unmarked) | – | ABTS scavenging | – | 10 min, dark | – | IC50 | 19.3 µM
COC1OC(C)C(OC2OC(C)C(OS(=O)(=O)O)C(OS(=O)(=O)O)C2OS(=O)(=O)O)C(OS(=O)(=O)O)C1OS(=O)(=O)O (centres unmarked) | – | – | human plasma | 128 µg/mL | – | prothrombin time | 15.5 ± 0.7 s
CCN(C(=O)c1cc(F)ccc1Oc1nncnc1N1CCC2(C1)CN([C@H](CCCN(C)CCOC)C(C)C)C2)C(C)C | – | – | OCI-AML-3, mouse, disseminated AML model | 30 mg/kg | – | increase in life span | 96%
COC1OC(C)C(OC2OC(C)C(O)C(OC3OC(C)C(OC4OC(C)C(O)C(OC5OC(C)C(OC6OC(C)C(O)C(OC7OC(C)C(OC8OC(C)C(O)C(OC9OC(C)C(O)C(OS(=O)(=O)O)C9OS(=O)(=O)O)C8OS(=O)(=O)O)C(OS(=O)(=O)O)C7OS(=O)(=O)O)C6OS(=O)(=O)O)C(OS(=O)(=O)O)C5OS(=O)(=O)O)C4OS(=O)(=O)O)C(OS(=O)(=O)O)C3OS(=O)(=O)O)C2OS(=O)(=O)O)C(OS(=O)(=O)O)C1OS(=O)(=O)O (centres unmarked) | – | – | human plasma | 128 µg/mL | reference: control | prothrombin time prolongation | 1.01 fold
O=C(N/N=C/c1ccc(C[n+]2ccccc2)cc1)N/N=C/c1ccc(C[n+]2ccccc2)cc1 | hp2 hairpin duplex DNA | FRET melting | – | 1 µM | – | ΔTm | 1.1 ± 0.1 °C
Oc1cc2c(cc1O)C(c1cccc3ccccc13)NCC2 (centres unmarked) | – | ABTS scavenging | – | 10 min, dark | – | IC50 | 14.2 µM
NC[C@@H](C(=O)Nc1ccc(-c2cn[nH]c2)cc1)c1ccccc1 | – | tonometry | NZW rabbit, magnetic bead-induced ocular hypertension | ocular, 0.1%, 26 h | – | IOP | 31.9 mmHg
CC[C@H](C)[C@H](NC(=O)[C@@H](NC(=O)c1ccnc(Cl)c1Cl)C(C)(C)C)C(=O)N[C@H](C(=O)N[C@H](C(=O)N[C@H](C(=O)N[C@@H](CCC(N)=O)C(=O)N[C@@H](Cc1c[nH]cn1)C(=O)N[C@H](CC(C)C)C(=O)N[C@@H](CO)C(=O)NCCOCCOCC(=O)N[C@@H](CCCCNC(=O)CC[C@@H]1NC(=O)[C@@H](CCCNC(=N)N)NC(=O)[C@H](CCCNC(=N)N)NC(=O)[C@@H](CCCNC(=N)N)NC(=O)[C@H](CCCNC(=N)N)NC(=O)[C@H](Cc2ccc3ccccc3c2)NC(=O)[C@@H](Cc2ccccc2)NC1=O)C(N)=O)[C@@H](C)O)[C@@H](C)CC)C(C)(C)O | – | – | mouse, acute lung injury, LPS-induced | intravenous, 5 mg/kg, added: LPS 10 mg/kg i.p. | – | lung tissue TNF-alpha level | inhibited
COC1OC(C)C(O)C(OC2OC(C)C(O)C(OC3OC(C)C(O)C(OC4OC(C)C(O)C(OC5OC(C)C(O)C(OC6OC(C)C(O)C(OS(=O)(=O)O)C6OS(=O)(=O)O)C5OS(=O)(=O)O)C4OS(=O)(=O)O)C3OS(=O)(=O)O)C2OS(=O)(=O)O)C1OS(=O)(=O)O (centres unmarked) | – | – | human plasma | 128 µg/mL | reference: control | prothrombin time prolongation | 0.98 fold
O=C(NS(=O)(=O)c1cccs1)c1cc2ccccc2n1Cc1ccc(Br)c2ccccc12 | – | – | male mouse, acute hyperuricaemia model, serum | oral, 2 mg/kg, 4 h | – | serum uric acid | 197 ± 26.5 µM
O=C1/C(=C/c2cc(Cl)c(O)c(Cl)c2)CNC/C1=C\c1cc(Cl)c(O)c(Cl)c1 | – | ABTS scavenging | – | 20 min | – | IC50 | 79.6 µg/mL
CCCC[C@@H](CSS(=O)(=O)O)NCCC | – | – | Swiss Webster mice, Schistosoma mansoni infected | 100 mg/kg | reference: vehicle control | liver weight decrease | 21%
CC(C)C[C@H](NC(=O)[C@H](CC(=O)O)NC(=O)CNC(=O)[C@@H](N)CCCNC(=N)N)C(=O)N[C@@H](C)C(=O)N[C@H](C(=O)N[C@@H](CC(C)C)C(=O)N[C@@H](CCCNC(=N)N)C(=O)N[C@@H](CCC(N)=O)C(=O)N[C@@H](CC(C)C)C(=O)N[C@@H](C)C(=O)N[C@@H](CCC(N)=O)C(=O)N[C@@H](CCC(=O)O)C(=O)N[C@@H](CC(=O)O)C(=O)NCC(=O)N[C@H](C(=O)N[C@H](C(=O)NCC(=O)N[C@H](C(=O)N[C@@H](CCCNC(=N)N)C(=O)NCCOCCOCCOCCOCCOCCOCCOCCOCCOCCOCCOCCOCCC(=O)N[C@@H](CS)C(N)=O)C(C)C)C(C)C)C(C)C)[C@@H](C)O | – | ex vivo NIR imaging | NOD/SCID mice, xenograft, H460 xenograft | intravenous, 30 µg, 24 h | reference: liver | fluorescence signal ratio | 0.041 and 0.057 and 0.012
Cc1cccc(C)c1CNc1cc(C(=O)N2CCC2)cn2c(C)c(C)nc12 | – | oesophageal lesions | rat reflux oesophagitis | oral, single dose | – | ED50 | 0.53 mg/kg

For quick reference, copied from above:
Compound | tested on | test | test system | setting | scale | quantity | result
COC1OC(C)C(OC2OC(C)C(O)C(OC3OC(C)C(OC4OC(C)C(O)C(OC5OC(C)C(OC6OC(C)C(O)C(OS(=O)(=O)O)C6OS(=O)(=O)O)C(OS(=O)(=O)O)C5OS(=O)(=O)O)C4OS(=O)(=O)O)C(OS(=O)(=O)O)C3OS(=O)(=O)O)C2OS(=O)(=O)O)C(OS(=O)(=O)O)C1OS(=O)(=O)O (centres unmarked) | – | – | human plasma | 128 µg/mL | reference: control | prothrombin time prolongation | 0.99 fold
O=C(N/N=C/c1ccc(C[n+]2ccccc2)cc1)N/N=C/c1ccc(C[n+]2ccccc2)cc1 | hp2 hairpin duplex DNA | FRET melting | – | 1 µM | – | ΔTm | 1.1 ± 0.1 °C
COC1CN([C@H]2CC[C@H]([C@@]3(C)Oc4c(Cl)cc(C(=O)NCc5c(SC)cc(C)[nH]c5=O)c(C)c4O3)CC2)C1 | – | RNA-seq, refers to: CLDN4 | human, whole blood | dose not given, 24 h | reference: pretreatment baseline | log2 fold change | 2.24
